Experimental data pooled from the literature.
Lines come from different studies, so protocols differ. ± gives the spread as reported.

`C#CCOc1ccc(CN[C@@]2(C)C[C@H](O[C@H]3[C@H](Oc4c5cc6cc4Oc4ccc(cc4Cl)[C@@H](O)[C@@H](NC(=O)[C@@H](CC(C)C)NC)C(=O)N[C@@H](CC(N)=O)C(=O)N[C@H]6C(=O)N[C@H]4C(=O)N[C@H](C(=O)N[C@H](C(=O)N[C@@H](CCCNC(=N)N)C(N)=O)c6cc(O)cc(O)c6-c6cc4ccc6O)[C@H](O)c4ccc(c(Cl)c4)O5)O[C@H](CO)[C@@H](O)[C@@H]3O)O[C@@H](C)[C@H]2O)cc1OC` gave an MIC of 72 µM (Acinetobacter baumannii; broth microdilution; BAA-747).
`COc1c(NC(=O)c2ccc(NC(=O)c3ccc(NC(=O)[C@H](Cc4c[nH]nn4)NC(=O)c4ccc(NC(=O)/C(C)=C/c5ccc(O)cc5)cc4)cc3)c(OC)c2O)ccc(C(=O)O)c1O` has an MIC of 2 µg/mL (Acinetobacter baumannii; microbial growth, broth dilution).
`O=C1NC2(CC2)COc2ncc(F)cc2[C@H]2COCCN2c2ccn3ncc1c3n2` has an organ weight of 0.448 ± 0.094 g (Sprague-Dawley rat, female, uterus; oral, 2.5 mg/kg/day, 4 weeks).
With `CC[C@H](C)[C@H](NC(=O)[C@H](Cc1c[nH]c2ccccc12)NC(=O)[C@H](CCCNC(=N)N)NC(=O)[C@@H](N)CCCNC(=N)N)C(=O)N[C@@H](CCCNC(=N)N)C(=O)N[C@@H](Cc1c[nH]c2ccccc12)C(=O)N[C@H](C(=O)N[C@H](C(N)=O)[C@@H](C)O)[C@@H](C)CC` the MIC was 16 µg/mL (Acinetobacter baumannii; without added MgSO4).
The MIC of `CN[C@H](CC(C)C)C(=O)N[C@H]1C(=O)N[C@@H](CC(N)=O)C(=O)N[C@H]2C(=O)N[C@H]3C(=O)N[C@H](C(=O)N[C@H](C(=O)N[C@@H](CCCNC(=N)N)C(N)=O)c4cc(O)cc(O)c4-c4cc3ccc4O)[C@H](O)c3ccc(c(Cl)c3)Oc3cc2cc(c3O[C@@H]2O[C@H](CO)[C@@H](O)[C@H](O)[C@H]2O[C@H]2C[C@](C)(NCc3ccc(OCc4cn(CC(=O)N[C@H](C(=O)N[C@@H](CCN)C(=O)N[C@H]5CCNC(=O)[C@H]([C@@H](C)O)NC(=O)[C@H](CCN)NC(=O)[C@H](CCN)NC(=O)[C@H](CC(C)C)NC(=O)[C@@H](CC(C)C)NC(=O)[C@H](CCN)NC5=O)[C@@H](C)O)nn4)c(OC)c3)[C@H](O)[C@H](C)O2)Oc2ccc(cc2Cl)[C@H]1O` is reported as 128 µg/mL (Acinetobacter baumannii; broth microdilution; ATCC 17978, cation-adjusted Mueller-Hinton broth; 18 to 20 h, 37 °C, 0.002% polysorbate 80).
For `CC[C@H](C)[C@H](NC(=O)[C@@H](CCCNC(=N)N)NC(=O)[C@H](CCCNC(=N)N)NC(=O)[C@@H]1CCCN1C(=O)[C@@H]1CCCN1C(=O)[C@H](CCCNC(=N)N)NC(=O)[C@@H]1CCCN1C(=O)[C@H](CCCNC(=N)N)NC(=O)[C@@H]1CCCN1C(=O)[C@H](CC(C)C)NC(=O)[C@H](Cc1ccc(O)cc1)NC(=O)[C@H](CCCNC(=N)N)NC(=O)[C@@H]1CCCN1C(=O)[C@H](CCCCN)NC(=O)[C@H](CC(=O)O)NC(=O)[C@@H](N)C(C)C)C(=O)N[C@@H](Cc1ccc(O)cc1)C(=O)N[C@@H](CC(N)=O)C(=O)N[C@H](CCCNC(=N)N)C(N)=O`, the MIC was 32 µg/mL (Acinetobacter baumannii; broth microdilution; DSM 30008; 18 h, 37 °C, 25% MHB2).
With `CC[C@H](C)[C@H](NC(=O)[C@H](C)NC(=O)[C@@H](NC(=O)[C@H](CC(=O)O)NC(=O)[C@H](CCCCN)NC(=O)[C@H](CO)NC(=O)[C@@H](NC(=O)[C@H](CC(N)=O)NC(=O)[C@H](C)NC(=O)[C@@H](NC(=O)[C@H](CCC(=O)O)NC(=O)[C@H](CCCCN)NC(=O)[C@@H](NC(=O)[C@@H](NC(=O)[C@H](Cc1c[nH]cn1)NC(=O)[C@H](CCCCN)NC(=O)[C@@H](NC(=O)[C@H](CCCCN)NC(=O)[C@H](CCCCN)NC(=O)[C@@H](NC(=O)[C@H](CC(C)C)NC(=O)[C@H](CCCCN)NC(=O)[C@H](CC(N)=O)NC(=O)[C@H](Cc1ccccc1)NC(=O)[C@H](CCCNC(=N)N)NC(=O)[C@H](CCCCN)NC(=O)[C@H](CCCNC(=N)N)NC(=O)[C@H](Cc1ccccc1)NC(=O)CN)C(C)C)C(C)C)[C@@H](C)O)[C@@H](C)CC)[C@@H](C)O)C(C)C)C(C)C)C(=O)N[C@H](C(=O)N[C@@H](C)C(=O)NCC(=O)N[C@@H](CO)C(=O)NCC(=O)N[C@H](C(=O)N[C@@H](C)C(=O)N[C@H](C(=O)NCC(=O)N[C@@H](C)C(=O)N[C@@H](C)C(=O)N[C@@H](CCSC)C(N)=O)C(C)C)C(C)C)C(C)C` the MIC was 0.5 µg/mL (Acinetobacter baumannii; ATCC 19606, CAMHB with 10% mouse serum; 150 mM NaCl).
With `CC[C@H](C)[C@H](NC(=O)[C@@H](CCCNC(=N)N)NC(=O)[C@H](CCCNC(=N)N)NC(=O)[C@H](CC(=O)O)NC(=O)[C@H](Cc1c[nH]c2ccccc12)NC(=O)[C@H](CCCNC(=N)N)NC(=O)[C@@H]1CCCN1C(=O)[C@H](CCCNC(=N)N)NC(=O)[C@@H]1CCCN1C(=O)[C@H](CC(C)C)NC(=O)[C@H](Cc1ccc(O)cc1)NC(=O)[C@@H]1CCCN1C(=O)[C@@H]1CCCN1C(=O)[C@H](CCCCN)NC(=O)[C@H](CC(=O)O)NC(=O)[C@@H](N)C(C)C)C(=O)N[C@@H](Cc1ccc(O)cc1)C(=O)N[C@@H](CC(N)=O)C(=O)N[C@H](CCCNC(=N)N)C(N)=O` the MIC was 64 µg/mL (Acinetobacter baumannii; broth microdilution; DSM 30008; 18 h, 37 °C, 25% MHB2).
`N=C(N)NCCC[C@@H]1NC(=O)[C@H](CCCNC(=N)N)NC(=O)[C@@H](CCCNC(=N)N)NC(=O)[C@H](C(c2ccccc2)c2ccccc2)NC(=O)[C@H](C(c2ccccc2)c2ccccc2)NC(=O)[C@H](C(c2ccccc2)c2ccccc2)NC(=O)[C@H](CCCNC(=N)N)NC1=O` has an MIC of 16 µg/mL (Acinetobacter baumannii; NCTC 13304, carbapenem-resistant).
`CCCCCCCC(=O)N[C@@H](CCN)C(=O)N[C@H](C(=O)N[C@@H](CCN)C(=O)N[C@H]1CCNC(=O)[C@H]([C@@H](C)O)NC(=O)[C@H](CCN)NC(=O)[C@H](CCN)NC(=O)[C@H](C)NC(=O)[C@@H](Cc2ccccc2)NC(=O)[C@H](CCN)NC1=O)[C@@H](C)O` gave an MIC of 0.5 µg/mL (Acinetobacter baumannii; CLSI broth microdilution; 248-01-C.248, CAMHB; 20 h, 37 °C).
`CCCCCCCC(=O)N[C@@H](CCN)C(=O)N[C@H](C(=O)N[C@@H](CCN)C(=O)N[C@H]1CCNC(=O)[C@H]([C@@H](C)O)NC(=O)[C@H](CCN)NC(=O)[C@H](CCN)NC(=O)[C@H](CC(C)C)NC(=O)[C@@H](Cc2ccc(Cl)cc2)NC(=O)[C@H](CCN)NC1=O)[C@@H](C)O` gave an MIC of < 0.125 µg/mL (Acinetobacter baumannii; broth microdilution; ATCC 19606, colistin-susceptible).
With `CCCCCCCC(=O)N[C@@H](CCN)C(=O)N[C@H](C(=O)N[C@@H](CCN)C(=O)N[C@H]1CCNC(=O)[C@H]([C@@H](C)O)NC(=O)[C@H](CCN)NC(=O)[C@H](CCN)NC(=O)[C@H](CC(C)C)NC(=O)[C@@H](Cc2ccccc2)NC(=O)[C@H](C)NC1=O)[C@@H](C)O` the MIC was > 512 µg/mL (Acinetobacter baumannii; CLSI broth microdilution; 5075, CAMHB; 20 h, 37 °C).
`CCn1c(-c2ccc(F)cc2)c(-c2ccc(F)cc2)n(Cc2ccccc2)c1=[Se]` gave an MIC of > 40 µM (Acinetobacter baumannii; broth microdilution; carbapenem-resistant; 24 h).
For `CCCCCCCC(=O)N[C@@H](CCN)C(=O)N[C@H](C(=O)N[C@@H](CCN)C(=O)N[C@H]1CCNC(=O)[C@H]([C@@H](C)O)NC(=O)[C@H](CCN)NC(=O)[C@H](CCN)NC(=O)[C@H](CC(C)C)NC(=O)[C@@H](Cc2c(F)c(F)c(F)c(F)c2F)NC(=O)[C@H](CCN)NC1=O)[C@@H](C)O`, the MIC was 0.5 to 1 µg/mL (Acinetobacter baumannii; broth microdilution; colistin-resistant isolates).
`CCCCCCCCCCCCCCCCCCn1cc(CN(CCC(=O)NCCN(CCC(=O)NCCN(CCC(=O)NCCN(C)C)CCC(=O)NCCN(C)C)CCC(=O)NCCN(CCC(=O)NCCN(C)C)CCC(=O)NCCN(C)C)CCC(=O)NCCN(CCC(=O)NCCN(CCC(=O)NCCN(C)C)CCC(=O)NCCN(C)C)CCC(=O)NCCN(CCC(=O)NCCN(C)C)CCC(=O)NCCN(C)C)nn1` has an MIC of 6 µg/mL (Acinetobacter baumannii; microbial growth, broth dilution; MDR, ATCCBAA1800; 18 h).
`CC[C@H](C)[C@H](NC(=O)[C@@H](CCCNC(=N)N)NC(=O)[C@H](CCCNC(=N)N)NC(=O)[C@H](Cc1c[nH]c2ccccc12)NC(=O)[C@H](Cc1c[nH]c2ccccc12)NC(=O)[C@H](CCCNC(=N)N)NC(=O)[C@@H]1CCCN1C(=O)[C@H](CCCNC(=N)N)NC(=O)[C@@H]1CCCN1C(=O)[C@H](CC(C)C)NC(=O)[C@H](Cc1ccc(O)cc1)NC(=O)[C@@H]1CCCN1C(=O)[C@@H]1CCCN1C(=O)[C@H](CCCCN)NC(=O)[C@H](CC(=O)O)NC(=O)[C@@H](N)C(C)C)C(=O)N[C@@H](Cc1ccc(O)cc1)C(=O)N[C@@H](CC(N)=O)C(=O)N[C@H](CCCNC(=N)N)C(N)=O` gave an MIC of 16 µg/mL (Acinetobacter baumannii; broth microdilution; DSM 30008; 18 h, 37 °C, 25% MHB2).
With `CCCCCCCC(=O)N[C@@H](CCN)C(=O)N[C@H](C(=O)N[C@@H](CCN)C(=O)N[C@H]1CCNC(=O)[C@H]([C@@H](C)O)NC(=O)[C@H](CCN)NC(=O)[C@H](CCN)NC(=O)[C@H](Cc2ccccc2)NC(=O)[C@@H](CCCCCC)NC(=O)[C@H](CCN)NC1=O)[C@@H](C)O` the MIC was 0.25 to 0.5 µg/mL (Acinetobacter baumannii; broth microdilution; ATCC 19606, colistin-susceptible).
`CCCCCCCC(=O)N[C@@H](CCN)C(=O)N[C@H](C(=O)N[C@@H](CCN)C(=O)N[C@H]1CCNC(=O)[C@H]([C@@H](C)O)NC(=O)[C@H](CCN)NC(=O)[C@H](CCN)NC(=O)[C@H](CC(C)C)NC(=O)[C@@H](C)NC(=O)[C@H](CCN)NC1=O)[C@@H](C)O` gave an MIC of 256 µg/mL (Acinetobacter baumannii; broth microdilution; ATCC 19606; 20 h, 37 °C).
`CC[C@H](C)[C@H](NC(=O)[C@@H](CCCNC(=N)N)NC(=O)[C@H](CCCNC(=N)N)NC(=O)[C@@H]1CCCN1C(=O)[C@@H]1CCCN1C(=O)[C@H](CCCNC(=N)N)NC(=O)[C@@H]1CCCN1C(=O)[C@H](CCCNC(=N)N)NC(=O)[C@@H]1CCCN1C(=O)[C@H](CCSC)NC(=O)[C@H](Cc1ccc(O)cc1)NC(=O)[C@@H]1CCCN1C(=O)[C@@H]1CCCN1C(=O)[C@H](CCCCN)NC(=O)[C@H](CC(=O)O)NC(=O)[C@@H](N)C(C)C)C(=O)N[C@@H](Cc1ccc(O)cc1)C(=O)N[C@@H](CC(N)=O)C(=O)N[C@H](CCCNC(=N)N)C(N)=O` gave an MIC of 64 µg/mL (Acinetobacter baumannii; broth microdilution; DSM 30008; 18 h, 37 °C, 25% MHB2).
For `CN[C@@H]1[C@H](O)[C@H](NC)[C@H]2O[C@]3(O)[C@H](O[C@@H]2[C@H]1O)O[C@H](C)C[C@H]3NC(=O)CNC(C)(C)C`, the MIC was > 200 µg/mL (Acinetobacter baumannii; microbial growth, broth dilution; ATCC19606).

Excerpt of the above:
`COc1c(NC(=O)c2ccc(NC(=O)c3ccc(NC(=O)[C@H](Cc4c[nH]nn4)NC(=O)c4ccc(NC(=O)/C(C)=C/c5ccc(O)cc5)cc4)cc3)c(OC)c2O)ccc(C(=O)O)c1O` has an MIC of 2 µg/mL (Acinetobacter baumannii; microbial growth, broth dilution).
